Experimental data from different studies.
Every numbered part comes from another study and shows a few of its results, in no order.

Block 1 — SMILES: c1ccc(N2CCN(Cc3nc4ccccc4[nH]3)CC2)nc1; technique: competition with immobilised ligand; concentration: 1 µM
target | observed | remaining binding [%]
Phosphatidylinositol 4,5-bisphosphate 3-kinase catalytic subunit alpha isoform (PIK3CA, Homo sapiens, UniProt P42336, E545K) | cell-free assay | 59
Serine/threonine-protein kinase Nek1 (NEK1, Homo sapiens, UniProt Q96PY6) | binding | 100
Serine/threonine-protein kinase PLK4 (PLK4, Homo sapiens, UniProt O00444) | binding | 99
Serine/threonine-protein kinase 32C (STK32C, Homo sapiens, UniProt Q86UX6) | binding | 100
Homeodomain-interacting protein kinase 1 (HIPK1, Homo sapiens, UniProt Q86Z02) | binding | 99
Calcium/calmodulin-dependent protein kinase type 1B (PNCK, Homo sapiens, UniProt Q6P2M8) | cell-free assay | 0
Serine/threonine-protein kinase 38-like (STK38L, Homo sapiens, UniProt Q9Y2H1) | binding | 72
Macrophage colony-stimulating factor 1 receptor (CSF1R, Homo sapiens, UniProt P07333) | cell-free assay | 98

Block 2 — mode: inhibitor; concentration: 1 µM
Structure (SMILES): C=CC(=O)N1CCC[C@@H](n2nc(-c3ccc(Oc4ccccc4)cc3)c3c(N)ncnc32)C1
target | observed | inhibition [%]
Leucine-rich repeat serine/threonine-protein kinase 2 (LRRK2, Homo sapiens, UniProt Q5S007) | enzyme activity | 11
RAC-alpha serine/threonine-protein kinase (AKT1, Homo sapiens, UniProt P31749) | enzyme activity | 4
Mitogen-activated protein kinase 10 (MAPK10, Homo sapiens, UniProt P53779) | enzyme activity | 46
Dual specificity mitogen-activated protein kinase kinase 3 (MAP2K3, Homo sapiens, UniProt P46734) | enzyme activity | 20
3-phosphoinositide-dependent protein kinase 1 (PDPK1, Homo sapiens, UniProt O15530) | enzyme activity | 0
High affinity nerve growth factor receptor (NTRK1, Homo sapiens, UniProt P04629) |  | 9
Vascular endothelial growth factor receptor 2 (KDR, Homo sapiens, UniProt P35968) | enzyme activity | 51

Block 3 — concentration: 1 µM
SMILES: COc1ccc2[nH]c3c4[nH]c5ccc(OC)cc5c4c4c(c3c2c1)C(=O)NC4=O
target | technique | measured | notes | reference | remaining binding [%]
Serine/threonine-protein kinase 32A (STK32A, Homo sapiens, UniProt Q8WU08) | competitive binding panel | YANK1 |  | vehicle | 69
Serine/threonine-protein kinase DCLK3 (DCLK3, Homo sapiens, UniProt Q9C098) | competitive binding panel | DCAMKL3 |  | vehicle | 19
Activin receptor type-1 (ACVR1, Homo sapiens, UniProt Q04771) | competitive binding panel |  |  | vehicle | 77
Casein kinase II subunit alpha' (CSNK2A2, Homo sapiens, UniProt P19784) | competitive binding panel |  |  | vehicle | 56
Homeodomain-interacting protein kinase 4 (HIPK4, Homo sapiens, UniProt Q8NE63) | competitive binding panel |  |  | vehicle | 70
Dual specificity tyrosine-phosphorylation-regulated kinase 1B (DYRK1B, Homo sapiens, UniProt Q9Y463) | competitive binding panel |  |  | vehicle | 79
Serine/threonine-protein kinase NIM1 (NIM1K, Homo sapiens, UniProt Q8IY84) | competitive binding panel | NIM1 |  | vehicle | 100
Mitogen-activated protein kinase kinase kinase 14 (MAP3K14, Homo sapiens, UniProt Q99558) | competitive binding |  | NIK |  | 20

Block 4 — observed: enzyme activity; mode: inhibitor; concentration: 0.5 µM; reference: control
SMILES: CC(C)[C@H](CO)Nc1nc(Nc2cccc(Cl)c2)c2ncn(C(C)C)c2n1
target | remaining activity
Tyrosine-protein kinase TXK (TXK, Homo sapiens, UniProt P42681) | 54.1%
Serine/threonine-protein kinase PAK 3 (PAK3, Homo sapiens, UniProt O75914) | 94.2%
Rho-associated protein kinase 1 (ROCK1, Homo sapiens, UniProt Q13464) | 100%
Serine/threonine-protein kinase tousled-like 2 (TLK2, Homo sapiens, UniProt Q86UE8) | 94.7%
Myosin-IIIb (MYO3B, Homo sapiens, UniProt Q8WXR4) | 94.2%
Serine/threonine-protein kinase MARK2 (MARK2, Homo sapiens, UniProt Q7KZI7) | 95.7%
Serine/threonine-protein kinase Nek3 (NEK3, Homo sapiens, UniProt P51956) | 94.2%
Discoidin domain-containing receptor 2 (DDR2, Homo sapiens, UniProt Q16832) | 99.1%
cGMP-dependent protein kinase 2 (PRKG2, Homo sapiens, UniProt Q13237) | 89.3%
Serine/threonine-protein kinase PLK3 (PLK3, Homo sapiens, UniProt Q9H4B4) | 86.4%
Dual specificity protein kinase CLK4 (CLK4, Homo sapiens, UniProt Q9HAZ1) | 50.9%
Mitogen-activated protein kinase 1 (MAPK1, Homo sapiens, UniProt P28482) | 86.7%
MAP/microtubule affinity-regulating kinase 4 (MARK4, Homo sapiens, UniProt Q96L34) | 89.8%
Ribosomal protein S6 kinase alpha-4 (RPS6KA4, Homo sapiens, UniProt O75676) | 90.1%
